Results gathered from unrelated publications.
Each numbered part is a random draw from the data of one study; scales do not carry over between parts. Positions count from the first letter of the parent shown.

Sample 1
Target: RING finger protein unkempt homolog, zinc fingers 1-6, GST-SBP tag (UNK, Homo sapiens, UniProt Q9C0B0, residues 30-357)
UniProt Q9C0B0, sequence (30-357, looked up): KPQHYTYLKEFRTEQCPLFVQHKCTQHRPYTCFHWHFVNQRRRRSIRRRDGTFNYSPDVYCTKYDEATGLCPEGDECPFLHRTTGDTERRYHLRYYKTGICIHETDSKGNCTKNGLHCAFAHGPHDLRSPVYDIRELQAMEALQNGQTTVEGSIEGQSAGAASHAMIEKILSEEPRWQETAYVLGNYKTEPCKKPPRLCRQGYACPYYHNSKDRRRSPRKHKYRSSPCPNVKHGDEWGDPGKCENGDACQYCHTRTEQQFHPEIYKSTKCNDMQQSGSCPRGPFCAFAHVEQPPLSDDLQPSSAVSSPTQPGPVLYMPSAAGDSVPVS
Technique: RNA Bind-n-Seq
Form: RNA
Medium: in vitro
Concentration: not given
Notes: RNA with constant flanks, ends assumed
Reference: input RNA pool
Direction: higher = stronger binding
Shared flanks, not repeated: GGGAGUUCUACAGUCCGACGAUC … CAACAGAGGAUUGAGCAUCA
Strand | bound/input enrichment [ratio]
AUGAACCUACAAAUAGUUGACAGAGCCAUUCAGGUAGUUCGAAGUGCUUUAGCUAACCAGACCGAUUGGACAGAAAUUGGGUUAAUUGUGAAAGAAGCCCAGGCUCAAGGAGACCCUGUU | 0.236
AAUGUAGAUUUUUGCUUUUCCUGUUUUUGUUUUGAAAAGUUACUCCAAUUGCUAAAUUGGCCGUUUUUUUGUCCUUAUAAAUAUAACAUUUAAAAAAGAUACACAAUUAUAUAAAAUGUU | 3.11
CCUGCAAUUGUUCAUAUUAACCACCAGCCAUACUUGGAAAGGGGAGAUGGCCCAAUCUGUCCCGUUCUGGCUCCUACCAGAGAGCUUGCCCAGCAAGUACAGCAGGUGGCCGAUGACUAU | 0.155
GACCCCUUGAUGGCCCAAGAAUCCCAUAUGCUAGCUUCUAACACCAUGGAGACCCAUAUGUCCGCAUCCAAUACCAUGGACUCCCAGAUGCUAGCAUCCAACACUAUGGAUUCUCAGAUG | 0.195
UAUGCAUUUAUAUAACUGUUUUGUUAUUUGAAUCUUGGAAAACUAGUUUUAUUAUAUUCAGACCGCCUUGUUUUUUAAAAAGGCCUUUGCAUACACCUUUAUGAGAUAGUGUAAAAUUGA | 58.8
GGUGGGACGGAAAAGACAUCACAGUAUGCAGGAAGGCUUGGGUUUGCUCAAAGUACCAGGUACCGGGAUGAACCUCUGAUGGGCUCUCUGCCCUAGAGUUGGGCAGCCUUCUCACCCCAG | 0.187
UGUGUGAUGCUUGUCUCUAAUUUGCCUAAUAAAGGAUAUUCUGUAGAAGAAGUUUAUGACUCCGCAAAACCAUUUGGUGGUUUAAAGGAUAUCUUGAUUUUAUCAUCUCAUAAAAAGGCA | 0.377
AAGCCUCCAAAGCGGAAGAAGGCAGACACUGAGGGGAAGUCCCCAUCUCACAGUUCUUCUAACCGACCUUUCACCCCACCUACCAGCACGGGUGGGUCCAAAUCCCCAGGCAGUUCAGGA | 0.15
CAGUCUUCUAUGUCUAUUGAGUUCGGCCAGGAAUCCCCUGAGCAUUCUCUUGCUAUGGACUUCCGUCGGCAGUCUCCAGAUCACCCUACUCUGGGUGCCAGUGUGCUUCAUAUCACUGAA | 0.242
CCUAGUAAAGAUGUUGUGAUGGUACAUGAACCAAAACAAAAAGUAGAUUUAACAAGGUACCCCGAAAACCAAACAUUUCGUUUUGAUUAUGCCUUUGAUGACUCAGCUCCUAAUGAAAUG | 8.15
GUCAUUUUUUUUCUUUGAAUAAAUGUCACUUUUUGAGGCAAAAGAAGGAACCGUGAACAUUUCCGACACCCUUUUCUUUGGGGUAGGCUCUUGCCCCAGGCGCCGGCUCUUCUCCCAAAA | 0.323

Sample 2
Target: RNA binding protein fox-1 homolog 2, RRM domain, GST-SBP tag (RBFOX2, Homo sapiens, UniProt O43251-10, residues 100-194)
Technique: RNA Bind-n-Seq
Form: RNA
Medium: in vitro
Concentration: 365 nM
Notes: natural RNA segment, single round, ends assumed
Reference: no-protein control
Direction: higher = stronger binding
Shared flanks, not repeated: GGGAGUUCUACAGUCCGACGAUC … UGGAAUUCUCGGGUGCCAA
Residues (chain): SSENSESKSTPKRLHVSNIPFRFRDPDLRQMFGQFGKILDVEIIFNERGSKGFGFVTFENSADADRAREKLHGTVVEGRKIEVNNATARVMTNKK
Strand | RBNS enrichment (R)
UGAUUCUGUUUGUGCAGAUUAAAAACUUUAUAGGGACUUGCAUUAUCGGUUCUCAAUAAAUUACUGAGCAGCUUUGUUUGGGGAGGGAAGUCCCUACCAUCCUUGUUUAG | 5.8
GACAGCUUAAAGGGGUCUACACCCUCAACUUGCUUAAGUGCCCUCUGCUGAUAGCCAGGAAGGAGGGAGACCAGCCCUGCCCCUCAGGACCUGACCUGGCUCAUGAUGCC | 0.251
UCUGCCCACCUCAUCCUCCAAAAGUGCUGGGAUUACAGGCAUGAGCCACUGCGCCUGGCCUCAGAAUGCAUUCUUACACAUCUAUCCUAGACAUUUAUAAGCACUCUAAU | 0.875
CUUCUGGCUGGCUUCUCUCUGCCAGGGGCUCAGAAGGGGCACAAAAGGGGGUCAAGAAAAGAGCAACAAAGCAAAAUUGUUCUUCCUCUUCCCUUCCCUGAUGCCAGGGG | 0.337
GUACCCGCUCUGCCUCAAGCAUCCCCCACACAGGGCUCUGGUUUUCACUCGCUUCGUCCUAGAUAGUUUAAAUGGGAAUCGGAUCCCCUGGUUGAGAGCUAAGACAACCA | 1.27
AGGAAGACUAAUUGCCAAUAACGUCUGCAUUUUCAUCUUGCAUGGAUUAACAGCCAUUUAUAUGGACUUAUGUCUCUUAAUGCACAAAGAAGCAGAUAUCUCGAAGGAGC | 0.264
UGUGCAUACCCUUGGUAGACAUUUCUCAUAGUGUGUACUUAAAAAGUGCCUGACAUUGAUUUGUGUUGAUUUCUAAGUCCAUGUAAUAAAUGAUACAUGUUUUCUAUGAU | 0.323
AAUGUGCCUUUUAAUUAGUGAUCUAGAAAGAAGUUCAGCCGAACCCACACCCCAACUCCCUCCCAAGAACUUCGGUGCCUAAAGCCUCCUGUUCCACCUCAGGUUUUCAC | 0.742
AUUUUACAACUUGCUGAGACACAAAUACUGUGCCCUUCCUGUCCUACUGACCACUGGGUAUGUAAUCUUUGAGGGAUAUGCGCUUUUAGGAAAAAGGAUUUCCCUUUAAG | 0.288
UCUUUGUACUGUACUCCCCUGUCUCACCUGGGGCAACCUCAGAGCCCCACUAAGCUGAAGGCCCCCUGGGGGAGGGGGAAGCAUGGUCCUUAUCAUCUGCCCUAUCUUGC | 0.901
UUGAGACUGAAGGUUCUUUAAAGACCGUAAGGAUGGCUUCCGACGUGUCAUGCUGCUGCUGUGAUCUUCAGCCUGCCUUGCCUGGAAACAUGGCAAAGACAAUGCUGACA | 0.303
UGACAGUGUGCAUCACCUCUGGGCCAAGGACAAGCCAUUGAUCUAAAUGCCUCAGAUGCCCGGGAGGGCCUCUGGUGCCACUGCAUAGUAUAUACUAACAUCAUUCUGCC | 0.561

Sample 3
Target: Interferon regulatory factor 7, full length, phosphomimetic (IRF7, Homo sapiens, UniProt Q92985, residues 1-503, S101K/S471D/S472D/S475D/S476D/S477D/S483D/S484D/S487D)
UniProt Q92985, sequence (whole entry, unmodified, looked up): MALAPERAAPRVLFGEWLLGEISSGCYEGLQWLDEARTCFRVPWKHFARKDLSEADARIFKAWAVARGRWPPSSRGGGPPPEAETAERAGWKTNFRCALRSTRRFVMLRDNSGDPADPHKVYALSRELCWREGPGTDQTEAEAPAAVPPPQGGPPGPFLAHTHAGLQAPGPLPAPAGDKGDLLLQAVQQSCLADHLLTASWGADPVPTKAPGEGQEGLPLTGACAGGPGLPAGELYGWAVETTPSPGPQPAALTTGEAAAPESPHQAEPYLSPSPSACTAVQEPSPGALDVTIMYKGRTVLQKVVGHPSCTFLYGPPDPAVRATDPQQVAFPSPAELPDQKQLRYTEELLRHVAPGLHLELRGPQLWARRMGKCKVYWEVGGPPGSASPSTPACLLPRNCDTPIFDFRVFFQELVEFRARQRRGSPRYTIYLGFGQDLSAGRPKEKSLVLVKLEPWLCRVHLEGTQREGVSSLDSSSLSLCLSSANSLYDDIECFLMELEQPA
Technique: protein-binding microarray
Form: double-stranded DNA, one strand shown
Medium: in vitro
Concentration: 250 nM
Notes: 60-bp whole probe
With: salmon DNA 0.4 mg/ml
Reference: random background probes
Direction: higher = stronger binding
Shared flanks, not repeated: GCCTAGCAC … GTCTTGATTCGCTTGACGCTGCTG
Strand | log fluorescence
GACGGCATCGGTTTCGGGACGTGCTAG | 3.17 z-score
TTAGGATTCGGGTATCGGTTAGTGCTA | 2.24 z-score
TTAGATCTCAGACTGGAGTAGTGCTAG | -0.0806 z-score
CTCAAAGTCTTTTATGGTATTGTGCTA | 0.181 z-score
TCAATTTTCTGAATGCCACTGTGCTAG | 1.27 z-score
TTAGGTATCGGGACTGGGTTCGTGCTA | 0.0703 z-score
TCAGCTTTATGTGTAGGACTGTGCTAG | -0.328 z-score
CTCTCTTCACATATAATTTTGTGCTAG | 0.386 z-score
TTAGGTCTCGATTTCGGTTAGTGCTAG | 6.24 z-score
TTGTTTTTTTCTATATGCAAGTGCTAG | 2.35 z-score
TTAGGTTTCGGGCTGGGTTAGTGCTAG | 2.91 z-score
TTGTGTTTGGGCATTTTTCTAGTGCTA | -0.771 z-score
TCATCTTTCGTTACTTCACTGTGCTAG | 1.42 z-score
TCAACTTGGAATTTCCCACTGTGCTAG | 0.456 z-score
GACGGTTTCCTTTTCCTCACGTGCTAG | 6.91 z-score
GGCGGTATCGGGACTGGGGACGTGCTA | -0.297 z-score
GACGAGTTCGGGACTGGAGACGTGCTA | -0.304 z-score

Sample 4
Target: PABPC1L2, full length, GST fusion (mouse, UniProt A0ABA7IW68)
Technique: RNAcompete
Form: RNA
Medium: in vitro
Concentration: 20 nM
Notes: 7-mer, probes averaged, single round
Reference: mean of 7-mers
Direction: higher = stronger binding
Residues (chain): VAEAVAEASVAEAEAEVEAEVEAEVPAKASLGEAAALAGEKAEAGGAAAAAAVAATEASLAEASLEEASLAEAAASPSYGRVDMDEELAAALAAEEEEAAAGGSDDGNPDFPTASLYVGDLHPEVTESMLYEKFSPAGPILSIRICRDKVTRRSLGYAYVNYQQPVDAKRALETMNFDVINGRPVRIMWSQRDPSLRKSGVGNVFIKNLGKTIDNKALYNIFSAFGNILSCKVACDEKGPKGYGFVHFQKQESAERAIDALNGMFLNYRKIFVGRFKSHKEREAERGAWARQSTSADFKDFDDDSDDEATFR
Strand | 7-mer Z-score
GGUAUAU | -0.0246
GUUUGAA | -0.371
UCGGGCA | 0.0207
GGCUUUC | -0.237
CAGUUAG | -0.148
GUAACUU | -0.208
UAUCUAC | -0.177
UCAAUGC | -0.32
CCUCUAA | -0.199
AAACUUU | 0.744
UCCCCGU | -0.518
CACUUGU | -0.324
AUUCCGC | -0.364
GCUCGUU | -0.485
UCGACUC | -0.335
CGUACGA | -0.327

Sample 5
Target: ABI1, truncated, D143A, DHFR fusion (Arabidopsis thaliana)
Technique: DHFR PCA, deep sequencing
Medium: yeast
Notes: methotrexate growth selection, single substitutions
With: (+)-ABA 0.0091 µM
Reference: wild-type fitted maximum
Direction: higher = stronger binding
Starting sequence: PYL1, truncated, DHFR fusion (Arabidopsis thaliana); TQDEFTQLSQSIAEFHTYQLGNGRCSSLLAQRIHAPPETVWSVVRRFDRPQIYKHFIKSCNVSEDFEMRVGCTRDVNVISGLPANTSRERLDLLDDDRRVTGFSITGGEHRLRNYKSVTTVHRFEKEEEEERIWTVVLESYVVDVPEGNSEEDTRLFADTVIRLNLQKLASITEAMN; partner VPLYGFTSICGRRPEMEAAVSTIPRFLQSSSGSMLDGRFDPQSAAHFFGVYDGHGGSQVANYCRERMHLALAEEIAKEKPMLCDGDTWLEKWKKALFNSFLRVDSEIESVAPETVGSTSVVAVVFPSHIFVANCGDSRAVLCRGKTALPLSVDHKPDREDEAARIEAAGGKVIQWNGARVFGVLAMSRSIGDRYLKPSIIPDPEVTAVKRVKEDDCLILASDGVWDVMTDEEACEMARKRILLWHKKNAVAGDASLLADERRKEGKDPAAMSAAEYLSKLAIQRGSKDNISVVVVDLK
Variant | relative binding score [%]
S11E | 44.3
E125A | 46.2
S150Q | 7.31
A158M | 17.2
E67D | 29.6
R24G | 0.716
Q31F | 1.19
S117Q | -4.59
F124W | 33.2
R49M | 17.6
T160N | -0.53
T173F | -1.68
R46S | 1.24
T173P | -1.47
R90D | -5.68
L28D | 2.24
S42G | 17.1
P50N | -3.69
T119G | -5.43
D95Y | -10.4
V43H | 1.43
C72T | 3.47
V145T | -1.23
I52N | 4.43
I79R | -1.37

Some of these lines once more (sample 5):
Variant | relative binding score [%]
E67D | 29.6
C72T | 3.47
Q31F | 1.19
T173F | -1.68
T119G | -5.43
R46S | 1.24
V43H | 1.43
